Assay results of several laboratories.
Each numbered part is a random draw from the data of one study; scales do not carry over between parts. Substitutions count along the parent as printed.

Study 1 — target: CCNA1, cyclin fold, Cln2 fusion (human); technique: yeast growth competition, sequencing; sample: yeast; notes: weak parent motif; relative to: not given; direction: higher = stronger binding
Starting sequence: CDC25A docking peptide (human); PPHRRRLLFACSP; partner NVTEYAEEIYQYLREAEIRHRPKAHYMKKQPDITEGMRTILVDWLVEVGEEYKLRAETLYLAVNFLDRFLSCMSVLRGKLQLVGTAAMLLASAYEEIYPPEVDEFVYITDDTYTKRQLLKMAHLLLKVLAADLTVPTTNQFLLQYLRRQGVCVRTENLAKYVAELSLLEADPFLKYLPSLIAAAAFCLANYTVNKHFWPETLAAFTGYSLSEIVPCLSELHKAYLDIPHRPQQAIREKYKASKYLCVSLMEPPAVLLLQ
| Variant | normalised enrichment score |
| --- | --- |
| P2F | 0.296 |
| A10R | 0.153 |
| P13F | 0.0668 |
| P2W | 0.266 |
| C11R | -0.184 |
| C11F | 0.283 |
| L7D | 0.298 |
| H3K | -0.204 |
| L7I | 0.604 |
| H3R | 0.457 |
| L7N | 0.206 |
| R6T | 0.335 |
| R6Y | -0.106 |
| C11I | 0.308 |
| R4L | 0.17 |
| H3M | 0.202 |
| R5A R6A L7A L8A | 0.142 |
| C11L | 0.293 |
| H3I | 0.402 |
| F9S | 0.529 |

Study 2 — technique: RNA Bind-n-Seq; form: RNA; sample: in vitro; concentration: 365 nM; relative to: no-protein control; direction: higher = stronger binding
Target: RNA binding protein fox-1 homolog 2, RRM domain, GST-SBP tag (RBFOX2, Homo sapiens, UniProt O43251-10, residues 100-194)
Notes: natural RNA segment, single round, ends assumed
All sequences stand within: GGGAGUUCUACAGUCCGACGAUC … UGGAAUUCUCGGGUGCCAA
Residues (chain): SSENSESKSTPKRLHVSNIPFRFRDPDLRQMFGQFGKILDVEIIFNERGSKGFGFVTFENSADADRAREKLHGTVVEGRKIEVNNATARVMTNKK
| Strand | RBNS enrichment (R) |
| --- | --- |
| UCCAGAGGUUAAGAUGUAUUAGAAUUAUACAAUAUCAGUUUAAAAAUCUGUAUGCAUAAAGAAUGCACCACUCAACUUUUUUAUUCAUAAGCUAAUAUUUUUUUAAAGUU | 1.01 |
| AUAUUUUGUAACUUCCAUGUGAGGGUUUUCAGCAUUGAUAUUUGUGCAUUUUCUAAACAGAGAUGAGGUGGUAUCUUCACGUAGAACAUUGGUAUUCGCUUGAGAAAAAA | 4.7 |
| ACUUUGUACCUUUCCCCUGAUUUUUAAACCCUUUUUCUAAACAGACUGACUUUCUUACAAAAUGCAUUUGGAAACCAGACCUUUGCUACCCACCAAUGUCUCUGGGUUUU | 0.883 |
| GGCUGCUUGGAAGGAGCCAUGGCCUAGGGUUCAGGGAACUAGACUCUAUCCCAGUUGGGUUCAGACUGCUGUGACUGUGGACACGAUGCUCCUUGUUCUGGGCUCCAGUU | 0.419 |
| AGAAGAGGAUCUAUGUGCUGACCUCAGAAGAUGUAUAUGUUUACAUAAUUUAAUACAGAUUGAUGUUAAUACUUGUGUAUUUACAUAACCGUUUCCUUCUUGUCACUGAA | 0.396 |
| ACAGUACUUGGUCACAAUAUCAAGUGUAUUUUUGUACAUAAUAUAUAUUGAUUAGAAAAACGUCAAUUGUCUAUUCAAAAAAUUCUAUCUCUGUGAUAGAUUAUAUUUAU | 0.411 |
| GUGGCAACCUUGCCUUCCUGACCUCAGCGGCCCUUCUGUUCCAUCCUCUGUGGGCAGGGGUGUGGCUUUGUUUUCCUCCCUCGUUUGCUUCCACCUCGUGCACAGCGCUC | 0.533 |
| CCCUAAGGACUGGACCUCCCGGCCCCUGUCAUGAUCAGGAACUCCAGUUCAUAAUUUAUAAAGAAGCAGUUUGUGUGUGUGUGGGUGUGUGUGUGCUCGCGAGCGCCAUC | 0.654 |
| UCAGCAGAGAGGUGAGGGACUCAGACAUAUAUCUAAGUUGAAUAGCAUCCCCAUCGCAGCUGUAAGAAUUGAGCUGCAGAAGGUACCCUCUGUCGGGAUUGUAUCUCGAC | 0.692 |
| UUCCCCAAGAAGGUAGUGUACUAGGAUCCUAUUAGUCUGCUUUUCAUAUACUGUACAUCAAGUAUAGGAAAUGUGCACUGAGUAUACUAAAAGUAUAUGCAGGAUUAAUU | 0.185 |
| UUCACUUUCCCAUGAAACUGCUGACAGACAGAAGUCACUAAAAUAAGGAAUUUUAAUGUUACUUUUUGAGUAACGACUGAGUUACCAGCAUUCUUGAUUCUUAGCGCUUU | 0.263 |
| UCCCUUCUCUUGGAAUGUGAAGAUCUGUCGAUUCAUCCUGUCAUUAAUCCUGACAUACAGAACAAAGAAUGCAGUAACAUUAGCCCUGCCAGGUCACGUGUAGGACGUGC | 0.345 |

Study 3 — technique: aptamer microarray, sandwich; form: DNA with 2'F-ANA; sample: in vitro; concentration: 200 nM; added: Cy3 exosite-II aptamer, 400 nM; direction: higher = stronger binding; strand: GGTTGGTGTGGTTGG
Target: Prothrombin, mature alpha-thrombin (F2, Homo sapiens, UniProt P00734)
Notes: whole 15-mer aptamer, many near background
| Modification | mean fluorescence intensity [a.u.] |
| --- | --- |
| 2'F-ANA at 1 5 7 10 13 14 15 | 44.9 |
| 2'F-ANA at 2 3 4 5 8 12 14 | 59 |
| 2'F-ANA at 3 6 7 8 9 10 15 | 517 |
| 2'F-ANA at 1 3 7 8 10 12 13 14 | 72.8 |
| 2'F-ANA at 3 5 7 10 | 55.3 |
| 2'F-ANA at 1 3 5 8 9 11 12 13 14 | 59.2 |
| 2'F-ANA at 2 3 4 5 8 11 | 85.7 |
| 2'F-ANA at 1 5 6 10 | 48 |
| 2'F-ANA at 1 2 4 6 11 13 | 78.9 |
| 2'F-ANA at 3 5 7 10 11 12 15 | 64.1 |
| 2'F-ANA at 3 4 5 6 10 15 | 53.3 |
| 2'F-ANA at 2 4 5 7 8 11 12 13 14 15 | 66.8 |
| 2'F-ANA at 2 5 6 7 9 12 13 | 94.7 |
| 2'F-ANA at 3 6 7 8 9 13 | 845 |
| 2'F-ANA at 1 3 4 8 9 10 11 13 15 | 56.3 |
| 2'F-ANA at 2 3 4 9 10 13 | 241 |

Study 4 — technique: protein binding microarray; form: double-stranded DNA, one strand shown; sample: in vitro; concentration: not given; relative to: not given; direction: higher = stronger binding
Target: Histone acetyltransferase KAT6A, winged helix 1, GST fusion (KAT6A, Homo sapiens, UniProt Q92794, residues 1-85)
Notes: 8-mer, flanks averaged, mean of 2 arrays, mostly near background
Residues (chain): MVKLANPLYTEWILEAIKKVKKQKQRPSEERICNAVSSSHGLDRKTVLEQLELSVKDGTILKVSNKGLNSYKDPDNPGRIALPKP
| Strand | E-score |
| --- | --- |
| CGAGCCCC | 0.0324 |
| CAAAGACA | -0.212 |
| TCAGGCCA | -0.0703 |
| AAAAGCCT | -0.198 |
| CCCTAAAG | -0.026 |
| GGCCTCCC | 0.02 |
| CAACATGG | -0.168 |
| AAAACTGT | -0.0927 |
| ATTGACTC | -0.156 |
| GCGTTTCA | 0.204 |
| CGTCTCGC | 0.238 |
| AATTGCGA | 0.0181 |
| AGTAATAC | -0.0247 |
| CAACGCCG | 0.287 |
| CTATAGTA | -0.00856 |
| CGTGAAGC | 0.167 |
| GGTCCCCA | -0.0402 |
| CAAGCAAA | -0.33 |
| AAGTAATC | -0.137 |
| AACGGATA | 0.147 |
| AAGCTGAG | -0.088 |
| GAAGCTCC | 0.0962 |
| CATTAGAA | -0.14 |
| CAGCTGAA | -0.221 |
| ACGTGAAA | -0.145 |

Study 5 — technique: competition protein-binding microarray; form: double-stranded DNA, one strand shown; sample: in vitro; concentration: 2 µM; added: Pho4 competitor, 0.05 µM; direction: higher = stronger binding; all sequences stand within: … GTCTTGATTCGCTTGACGCTGCTG
Target: Centromere-binding protein 1, full length, His-tagged (CBF1, Saccharomyces cerevisiae, UniProt P17106, residues 1-351)
Sequence of UniProt P17106 (whole entry, looked up): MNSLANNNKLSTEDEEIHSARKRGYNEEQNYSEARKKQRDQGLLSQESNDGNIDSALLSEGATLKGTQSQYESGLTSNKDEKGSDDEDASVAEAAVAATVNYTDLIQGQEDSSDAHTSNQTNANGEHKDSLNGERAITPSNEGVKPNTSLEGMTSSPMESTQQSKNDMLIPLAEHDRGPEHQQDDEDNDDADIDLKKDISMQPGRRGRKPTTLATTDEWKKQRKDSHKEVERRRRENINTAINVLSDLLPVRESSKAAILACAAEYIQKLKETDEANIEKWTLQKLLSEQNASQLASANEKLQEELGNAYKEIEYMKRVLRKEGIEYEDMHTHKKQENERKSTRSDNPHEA
Notes: whole 60-bp probe, lowest competitor level
| Strand | fluorescence intensity |
| --- | --- |
| AAAATGTTAGCCCATCACGATGGAAACTTAACTGCT | 97.3 a.u. |
| CGGGGTTAAGTTTGCGCCGTGGGTGGCTTGCAGCAG | 71.3 a.u. |
| TGAAGAACAGAGCTGCTCGTGACGGAAGAGCTCAAA | 139 a.u. |
| ATTTTGCACTTCCGTCACATGCAATCGAGGCAAAAA | 479 a.u. |
| CTGGTAGCCCTATCGCACGTGCCGATCTGATCAAGG | 1560 a.u. |
| CATATGTTTTAGCTGATTATAATTCTTCGATCGATG | 137 a.u. |
| AGCAGAAGAAAACATACCGTGCGATATAGTACCTGG | 74.9 a.u. |
| AGCCAACGTTACGACCACGATGCCTATGAACACCAT | 87.3 a.u. |
| CTAACGAAGGTTTTTCACGTGTCCTACAAGCCAAGT | 956 a.u. |
| TTTGCAGGAAACAGCCGCGTGCCAGTTTGCTCGATA | 76.9 a.u. |
| GTCTTGTCTCATTGGTGCGTGGGTGTCCCCACTTCA | 87.2 a.u. |
| GTCTTGTCTCATTGCCGCGTGGGTGTCCCCACTTCA | 96.6 a.u. |
| AACAGTGGTTCCTGTTCCGTGACGGGTGCTACAACT | 64.9 a.u. |
| ACACTGCTTTGTACCCACGTTTCAAGAAATGGTGTG | 129 a.u. |
| TAGGACCAATTTGGCAATGTGACTCGCGGAATATGG | 151 a.u. |
| TGCGCAACAACTTGAGCTGTGGGTGTATGTCTAGAA | 61.9 a.u. |
| TGCAAACCTGCAATACTCGTGATGGATATTTAATTA | 470 a.u. |
| TAAATAACCCTGAGCCACATGTGTAAGATGCCGTAG | 81.5 a.u. |
| CGGGGTTAAGTTTGTTGGGTGGGTGGCTTGCAGCAG | 76.3 a.u. |
| GAATTCTGTGCACTTGCCGTGATGGTGTTCGTTACA | 89.2 a.u. |
| CATCGGCCCATTTGGCACACGCCAGTTAGTGAGGTT | 62.8 a.u. |
| AAGGAACAGTTCCATCACGTGTGTTTGTTTGTTGGG | 2690 a.u. |
| TCAAATATGCACCATCTCGTGATGGTTCAAAGATTG | 358 a.u. |

Study 6 — technique: DHFR PCA, deep sequencing; sample: yeast; added: (+)-ABA 58 µM; relative to: wild-type fitted maximum; direction: higher = stronger binding
Target: ABI1, truncated, D143A, DHFR fusion (Arabidopsis thaliana)
Notes: methotrexate growth selection, single substitutions
Starting sequence: PYL1, truncated, DHFR fusion (Arabidopsis thaliana); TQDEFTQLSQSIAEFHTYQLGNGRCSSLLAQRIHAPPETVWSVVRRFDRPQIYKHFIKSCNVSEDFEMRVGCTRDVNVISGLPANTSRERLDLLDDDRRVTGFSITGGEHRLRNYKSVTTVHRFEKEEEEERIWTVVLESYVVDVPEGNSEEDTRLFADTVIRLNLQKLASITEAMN
| Variant | relative binding score [%] |
| --- | --- |
| E131N | 104 |
| E152C | 73.5 |
| R155C | 73.9 |
| T173K | -5.87 |
| L28D | 5.55 |
| A158M | 71.7 |
| S150A | 57.2 |
| D65K | 88.2 |
| E4T | 89.8 |
| V137L | 42.1 |
| G102K | 39.1 |
| S11E | 103 |
| P50N | 0.494 |
| F124W | 89.4 |
| V145T | 67.8 |
| R155H | 58.7 |
| T106N | 47.6 |
| E4H | 93.3 |
| V76H | -6.2 |
| V43H | 45.9 |
| F15L | 70.8 |
| D95Y | 34.4 |
| F47K | -5.69 |
| S42G | 92.5 |
